Measurements pooled from the literature.
Compare with care: the assays were run in different laboratories. ± marks the error that the study gave. Square brackets hold non-standard residues; d marks the D form. * marks the point of attachment.
B1: ICAM1 28-485 (Homo sapiens, UniProt P05362); sequence looked up; chain QTSVSPSKVILPRGGSVLVTCSTSCDQPKLLGIETPLPKKELLLPGNNRKVYELSNVQEDSQPMCYSNCPDGQSTAKTFLTVYWTPERVELAPLPSWQPVGKNLTLRCQVEGGAPRANLTVVLLRGEKELKREPAVGEPAEVTTTVLVRRDHHGANFSCRTELDLRPQGLELFENTSAPYQLQTFVLPATPPQLVSPRVLEVDTQGTVVCSLDGLFPVSEAQVHLALGDQRLNPTVTYGNDSFSAKASVSVTAEDEGTQRLTCAVILGNQSQETLQTVTIYSFPAPNVILTKPEVSEGTEVTVKCEAHPRAKVTLNGVPAQPLGPRAQLLLKATPEDNGRSFSCSATLEVAGQLIHKNQTRELRVLYGPRLDERDCPGNWTWPENSQQTPMCQAWGNPLPELKCLKDGTFPLPIGESVTVTRDLEGTYLCRARSTQGEVTRKVTVNVLSPRYEIVIIT
B2: FBLN5 42-448 (Homo sapiens, UniProt Q9UBX5); chain DIDECRTIPEACRGDMMCVNQNGGYLCIPRTNPVYRGPYSNPYSTPYSGPYPAAAPPLSAPNYPTISRPLICRFGYQMDESNQCVDVDECATDSHQCNPTQICINTEGGYTCSCTDGYWLLEGQCLDIDECRYGYCQQLCANVPGSYSCTCNPGFTLNEDGRSCQDVNECATENPCVQTCVNTYGSFICRCDPGYELEEDGVHCSDMDECSFSEFLCQHECVNQPGTYFCSCPPGYILLDDNRSCQDINECEHRNHTCNLQQTCYNLQGGFKCIDPIRCEEPYLRISDNRCMCPAENPGCRDQPFTILYRDMDVVSGRSVPADIFQMQATTRYPGAYYIFQIKSGNEGREFYMRQTGPISATLVMTRPIKGPREIQLDLEMITVNTVINFRGSSVIRLRIYVSQYPF
B3: CyaY 1-106 (Escherichia coli, UniProt P27838); chain MNDSEFHRLADQLWLTIEERLDDWDGDSDIDCEINGGVLTITFENGSKIIINRQEPLHQVWLATKQGGYHFDLKGDEWICDRSGETFWDLLEQAATQQAGETVSFR
B4: bfd 1-73 C43S (Pseudomonas aeruginosa, UniProt Q9HY80); chain MYVCLCQGVTDNQIRDAIYEGCCSYREVREATGVGTQCGKCASLAKQVVRETLNDLQSAQPVPAFGTTAFVAA
B5: acrA (Escherichia coli, UniProt P0AE06); N-terminal lipid at C25; chain CDDKQAQQGGQQMPAVGVVTVKTEPLQITTELPGRTSAYRIAEVRPQVSGIILKRNFKEGSDIEAGVSLYQIDPATYQATYDSAKGDLAKAQAAANIAQLTVNRYQKLLGTQYISKQEYDQALADAQQANAAVTAAKAAVETARINLAYTKVTSPISGRIGKSNVTEGALVQNGQATALATVQQLDPIYVDVTQSSNDFLRLKQELANGTLKQENGKAKVSLITSDGIKFPQDGTLEFSDVTVDQTTGSITLRAIFPNPDHTLLPGMFVRARLEEGLNPNAILVPQQGVTRTPRGDATVLVVGADDKVETRPIVASQAIGDKWLVTEGLKAGDRVVISGLQKVRPGVQVKAQEVTADNNQQAASGAQPEQSKS
B6: wzb (Escherichia coli, UniProt P0AAB2); chain MFNNILVVCVGNICRSPTAERLLQRYHPELKVESAGLGALVGKGADPTAISVAAEHQLSLEGHCARQISRRLCRNYDLILTMEKRHIERLCEMAPEMRGKVMLFGHWDNECEIPDPYRKSRETFAAVYTLLERSARQWAQALNAEQV
UniProt Q9Y566, sequence (whole entry, looked up): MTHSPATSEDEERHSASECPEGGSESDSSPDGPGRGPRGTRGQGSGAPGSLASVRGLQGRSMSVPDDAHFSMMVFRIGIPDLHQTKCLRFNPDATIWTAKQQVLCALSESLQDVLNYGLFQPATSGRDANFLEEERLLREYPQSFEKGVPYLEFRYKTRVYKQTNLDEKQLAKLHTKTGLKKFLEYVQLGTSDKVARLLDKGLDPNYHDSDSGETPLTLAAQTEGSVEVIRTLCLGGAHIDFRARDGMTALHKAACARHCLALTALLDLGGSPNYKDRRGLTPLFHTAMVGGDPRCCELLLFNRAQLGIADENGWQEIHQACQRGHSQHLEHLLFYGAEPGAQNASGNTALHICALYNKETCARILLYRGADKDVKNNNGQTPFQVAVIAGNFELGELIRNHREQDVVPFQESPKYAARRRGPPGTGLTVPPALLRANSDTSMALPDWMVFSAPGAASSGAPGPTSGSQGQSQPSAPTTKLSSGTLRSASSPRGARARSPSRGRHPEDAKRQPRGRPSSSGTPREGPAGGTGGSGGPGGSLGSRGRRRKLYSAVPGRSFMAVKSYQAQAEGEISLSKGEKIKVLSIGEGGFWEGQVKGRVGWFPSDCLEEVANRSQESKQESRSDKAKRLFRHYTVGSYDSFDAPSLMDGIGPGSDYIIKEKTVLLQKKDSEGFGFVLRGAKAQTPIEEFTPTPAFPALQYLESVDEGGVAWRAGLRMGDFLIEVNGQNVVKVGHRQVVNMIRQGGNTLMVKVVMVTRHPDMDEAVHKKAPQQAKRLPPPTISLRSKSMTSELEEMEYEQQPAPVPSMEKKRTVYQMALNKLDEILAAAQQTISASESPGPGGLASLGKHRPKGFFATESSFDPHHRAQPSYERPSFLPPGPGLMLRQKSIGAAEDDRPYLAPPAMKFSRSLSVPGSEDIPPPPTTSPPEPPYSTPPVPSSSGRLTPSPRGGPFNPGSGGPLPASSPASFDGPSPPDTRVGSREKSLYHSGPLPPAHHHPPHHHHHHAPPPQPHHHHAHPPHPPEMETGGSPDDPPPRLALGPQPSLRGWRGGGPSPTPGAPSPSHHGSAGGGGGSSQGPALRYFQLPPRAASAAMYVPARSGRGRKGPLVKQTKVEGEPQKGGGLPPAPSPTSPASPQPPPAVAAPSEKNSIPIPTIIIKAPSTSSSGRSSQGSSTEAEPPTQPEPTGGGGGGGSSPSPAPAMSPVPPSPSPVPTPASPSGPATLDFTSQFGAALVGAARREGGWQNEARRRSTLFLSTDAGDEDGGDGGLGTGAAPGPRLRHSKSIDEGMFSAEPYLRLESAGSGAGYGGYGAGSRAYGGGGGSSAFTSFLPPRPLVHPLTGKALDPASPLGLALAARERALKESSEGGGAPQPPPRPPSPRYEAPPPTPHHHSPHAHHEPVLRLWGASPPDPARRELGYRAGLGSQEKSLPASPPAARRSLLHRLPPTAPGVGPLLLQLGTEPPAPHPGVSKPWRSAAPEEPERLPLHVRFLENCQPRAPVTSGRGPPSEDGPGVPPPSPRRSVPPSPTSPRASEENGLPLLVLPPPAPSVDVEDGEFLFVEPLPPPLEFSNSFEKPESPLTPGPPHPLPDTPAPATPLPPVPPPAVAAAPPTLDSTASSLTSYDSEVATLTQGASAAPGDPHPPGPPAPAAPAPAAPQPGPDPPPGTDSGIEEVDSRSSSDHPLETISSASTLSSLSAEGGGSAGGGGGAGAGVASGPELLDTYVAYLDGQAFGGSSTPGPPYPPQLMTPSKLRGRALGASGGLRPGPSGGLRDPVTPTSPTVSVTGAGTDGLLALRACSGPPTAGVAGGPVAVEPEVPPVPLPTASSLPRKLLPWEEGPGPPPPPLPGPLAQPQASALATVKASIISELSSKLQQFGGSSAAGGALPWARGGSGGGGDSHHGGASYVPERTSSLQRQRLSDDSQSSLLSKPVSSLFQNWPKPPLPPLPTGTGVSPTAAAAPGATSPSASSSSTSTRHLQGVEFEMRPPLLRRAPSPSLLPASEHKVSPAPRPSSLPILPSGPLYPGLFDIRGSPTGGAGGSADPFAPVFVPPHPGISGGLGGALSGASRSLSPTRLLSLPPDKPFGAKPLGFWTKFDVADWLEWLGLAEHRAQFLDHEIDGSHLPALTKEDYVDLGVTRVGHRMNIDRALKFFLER
UniProt P08637, sequence (whole entry, looked up): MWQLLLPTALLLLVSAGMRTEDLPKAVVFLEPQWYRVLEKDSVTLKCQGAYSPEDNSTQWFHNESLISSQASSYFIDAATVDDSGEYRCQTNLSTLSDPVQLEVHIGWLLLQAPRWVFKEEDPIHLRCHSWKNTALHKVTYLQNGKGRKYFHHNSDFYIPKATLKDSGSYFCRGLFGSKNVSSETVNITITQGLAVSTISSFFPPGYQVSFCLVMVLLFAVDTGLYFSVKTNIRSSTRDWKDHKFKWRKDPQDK
UniProt Q9KWN0, sequence (whole entry, looked up): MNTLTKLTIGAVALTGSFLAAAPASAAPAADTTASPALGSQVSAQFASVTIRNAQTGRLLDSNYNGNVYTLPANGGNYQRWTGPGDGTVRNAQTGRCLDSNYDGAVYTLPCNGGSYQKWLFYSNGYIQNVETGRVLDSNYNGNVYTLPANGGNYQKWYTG
UniProt P31224, sequence (whole entry, unmodified, looked up): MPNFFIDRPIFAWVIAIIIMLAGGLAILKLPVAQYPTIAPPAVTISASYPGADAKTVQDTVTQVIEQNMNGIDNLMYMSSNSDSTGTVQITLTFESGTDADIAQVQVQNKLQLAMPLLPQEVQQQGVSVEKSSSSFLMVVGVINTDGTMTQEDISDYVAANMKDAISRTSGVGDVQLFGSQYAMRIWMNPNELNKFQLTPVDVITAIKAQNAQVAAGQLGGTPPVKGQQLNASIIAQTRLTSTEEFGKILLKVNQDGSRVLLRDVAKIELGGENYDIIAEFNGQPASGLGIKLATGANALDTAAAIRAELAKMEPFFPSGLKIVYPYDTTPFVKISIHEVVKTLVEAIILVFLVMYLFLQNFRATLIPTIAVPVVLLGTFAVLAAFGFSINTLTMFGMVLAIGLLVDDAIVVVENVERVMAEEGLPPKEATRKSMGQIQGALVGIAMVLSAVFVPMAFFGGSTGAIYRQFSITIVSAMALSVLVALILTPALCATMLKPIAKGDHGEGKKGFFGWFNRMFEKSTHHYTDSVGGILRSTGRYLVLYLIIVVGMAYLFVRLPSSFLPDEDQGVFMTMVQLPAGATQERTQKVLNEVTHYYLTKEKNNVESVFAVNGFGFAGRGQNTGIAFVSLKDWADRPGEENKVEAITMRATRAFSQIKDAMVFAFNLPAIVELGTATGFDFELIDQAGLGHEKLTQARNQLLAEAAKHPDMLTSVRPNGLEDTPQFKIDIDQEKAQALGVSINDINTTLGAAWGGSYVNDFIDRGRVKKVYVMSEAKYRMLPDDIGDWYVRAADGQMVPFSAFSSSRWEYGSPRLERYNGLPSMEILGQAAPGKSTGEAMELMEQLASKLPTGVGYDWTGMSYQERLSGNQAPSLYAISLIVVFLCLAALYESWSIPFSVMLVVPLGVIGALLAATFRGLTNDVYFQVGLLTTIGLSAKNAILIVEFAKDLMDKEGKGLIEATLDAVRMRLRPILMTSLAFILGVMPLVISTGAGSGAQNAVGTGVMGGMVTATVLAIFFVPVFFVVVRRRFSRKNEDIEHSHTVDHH
UniProt P23946, sequence (whole entry, looked up): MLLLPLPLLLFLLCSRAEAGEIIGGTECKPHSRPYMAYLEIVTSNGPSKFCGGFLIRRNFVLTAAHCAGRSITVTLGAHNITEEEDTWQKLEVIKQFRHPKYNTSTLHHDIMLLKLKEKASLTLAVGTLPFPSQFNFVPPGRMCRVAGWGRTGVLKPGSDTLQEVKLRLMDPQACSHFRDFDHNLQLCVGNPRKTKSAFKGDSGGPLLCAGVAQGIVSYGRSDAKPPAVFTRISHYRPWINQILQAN
UniProt P76387, sequence (whole entry, unmodified, looked up): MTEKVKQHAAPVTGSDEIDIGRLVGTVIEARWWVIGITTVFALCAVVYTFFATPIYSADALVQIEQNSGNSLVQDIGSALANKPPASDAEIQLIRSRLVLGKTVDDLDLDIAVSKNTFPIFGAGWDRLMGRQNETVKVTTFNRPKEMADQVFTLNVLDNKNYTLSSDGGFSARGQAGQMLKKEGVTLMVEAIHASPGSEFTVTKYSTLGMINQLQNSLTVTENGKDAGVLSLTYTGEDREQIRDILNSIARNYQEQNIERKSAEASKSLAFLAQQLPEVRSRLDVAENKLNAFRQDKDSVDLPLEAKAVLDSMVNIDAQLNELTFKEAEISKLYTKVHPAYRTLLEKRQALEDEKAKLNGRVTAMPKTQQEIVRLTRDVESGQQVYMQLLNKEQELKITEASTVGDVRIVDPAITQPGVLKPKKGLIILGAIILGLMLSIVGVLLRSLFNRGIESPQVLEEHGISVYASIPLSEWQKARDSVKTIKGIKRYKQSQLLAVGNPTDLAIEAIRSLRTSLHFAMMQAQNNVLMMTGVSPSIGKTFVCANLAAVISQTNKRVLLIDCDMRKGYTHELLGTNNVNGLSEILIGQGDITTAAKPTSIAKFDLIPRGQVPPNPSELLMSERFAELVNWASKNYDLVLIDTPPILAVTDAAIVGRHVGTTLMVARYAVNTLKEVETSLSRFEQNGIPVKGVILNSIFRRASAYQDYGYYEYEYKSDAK

Substance | target or system | assay | system | setting | endpoint | result
B1 (ICAM1 28-485) | IT4VAR13 1-2691 (Plasmodium falciparum, UniProt A3R6S0) | SPR | Fc fusion | one-site fit | Kd | 0.0028 µM
B2 (FBLN5 42-448) | FBN1 31-489 (Homo sapiens, UniProt P35555) | ELISA |  |  | Kd | 0.063 ± 0.014 µM
{FITC}-GFID[pS]D[pT]DVEEE-NH2 (peptide; N-terminal FITC, pS5, pT7, C-terminal amide; FITC = O=C1OC2(c3ccc(O)cc3Oc3cc(O)ccc32)c2ccc(NC(=S)*)cc21; pS = N[C@@H](COP(=O)(O)O)C(=O)O; pT = C[C@@H](OP(=O)(O)O)[C@H](N)C(=O)O) | TOPBP1 641-746 S654A (Homo sapiens, UniProt Q92547) | fluorescence polarisation | peptide | pH 7.5, NaCl 150 mM | Kd | 48 ± 6 µM
B3 (CyaY 1-106) | IscS 1-404 (Escherichia coli, UniProt P0A6B7) | BLI |  | pH 7.5, 25 °C, NaCl 150 mM, together with: IscU 10 µM | Kd | 23 ± 3 µM
B4 (bfd 1-73 C43S) | bfrB 1-158 extra Met0 (Pseudomonas aeruginosa, UniProt Q9HY79) | ITC |  | pH 7.0, 22 °C | Kd | 2.6 ± 1 µM
B5 (acrA) | acrB C493S/C887S/S1043C (Escherichia coli, UniProt P31224) | SPR |  | pH 7.5, 150 mM NaCl, global fit, Langmuir | koff | 0.00291 s⁻¹
RmS-3, glycosylated (Rhipicephalus microplus) | CMA1 (Homo sapiens, UniProt P23946) | chromogenic substrate hydrolysis, inhibitor |  | 1 µM | protease inhibition | 23.4%
TVTRALRDLMQGILQKI (pscF 69-85 (Pseudomonas aeruginosa, UniProt P95434); sequence looked up) | pscG (Pseudomonas aeruginosa, UniProt P95435) | ITC | peptide | pH 7.0, 25 °C | Kd | 10.5 µM
{FITC}-QNTDDVQTSF-OH (ACE2 796-805 (Homo sapiens); N-terminal FITC; FITC = O=C1OC2(c3ccc(O)cc3Oc3cc(O)ccc32)c2ccc(NC(=S)*)cc21) | SHANK1 655-761 (Homo sapiens, UniProt Q9Y566) | FP | peptide |  | Kd | 8.3 µM
B6 (wzb) | wzc 447-704 (Escherichia coli, UniProt P76387) | ITC |  |  | Kd | 10.7 ± 1.3 µM
melittin |  | membrane partitioning, CD van't Hoff analysis | POPC/POPG LUVs 100:0% | concentration not given, 5 to 60 °C | heat capacity change | -0.6 kcal/mol/K
FCGR3A (Homo sapiens, UniProt P08637) | protein Fc fusion, IgG1 (Homo sapiens, UniProt Q9KWN0) | SPR |  | steady state | Kd | 0.28 µM

Excerpt of the above:
Substance | target or system | assay | system | setting | endpoint | result
B1 (ICAM1 28-485) | IT4VAR13 1-2691 (Plasmodium falciparum, UniProt A3R6S0) | SPR | Fc fusion | one-site fit | Kd | 0.0028 µM
{FITC}-QNTDDVQTSF-OH (ACE2 796-805 (Homo sapiens); N-terminal FITC; FITC = O=C1OC2(c3ccc(O)cc3Oc3cc(O)ccc32)c2ccc(NC(=S)*)cc21) | SHANK1 655-761 (Homo sapiens, UniProt Q9Y566) | FP | peptide |  | Kd | 8.3 µM
